Measured values gathered from unrelated publications.
Protocols differ between the studies behind these lines. Several values in a cell are separate wells, animals, samples, runs or records.
Sequence of UniProt P20813 (whole entry, looked up): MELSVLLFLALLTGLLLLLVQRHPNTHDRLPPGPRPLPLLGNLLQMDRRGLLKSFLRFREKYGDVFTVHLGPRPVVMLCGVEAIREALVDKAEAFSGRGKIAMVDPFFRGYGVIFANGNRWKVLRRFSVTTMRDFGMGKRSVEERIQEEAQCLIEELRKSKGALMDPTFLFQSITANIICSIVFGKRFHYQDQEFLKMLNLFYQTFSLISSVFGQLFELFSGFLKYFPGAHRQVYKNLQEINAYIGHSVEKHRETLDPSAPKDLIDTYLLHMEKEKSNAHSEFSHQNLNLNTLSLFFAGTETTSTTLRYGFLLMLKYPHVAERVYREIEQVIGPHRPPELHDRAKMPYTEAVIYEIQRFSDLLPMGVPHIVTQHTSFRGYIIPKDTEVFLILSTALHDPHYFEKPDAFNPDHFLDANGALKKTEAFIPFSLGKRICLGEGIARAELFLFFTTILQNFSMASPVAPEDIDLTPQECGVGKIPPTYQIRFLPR

Under “log2 fold change”, `CN1CCCNC(=O)c2cccc(c2)C(=O)NCCCN(C)CCCNc2cccc3c2C(=O)c2cccc(c2C3=O)NCCC1` is recorded as -0.992 (SAS; RNA-Seq, refers to: SLC25A43 mRNA; 1 µM, 6 h; relative to: untreated cells).
For `COC1CN([C@H]2CC[C@H]([C@@]3(C)Oc4c(Cl)cc(C(=O)NCc5c(SC)cc(C)[nH]c5=O)c(C)c4O3)CC2)C1`, “log2 fold change” read 1.16 (RNA-seq, refers to: AKT3 mouse homolog; mouse, HT-1376 xenograft, whole blood; dose not given; relative to: vehicle).
The IC50 of `CNS(=O)(=O)Nc1nccc(Cc2c(C)c3ccc(Oc4ncccc4F)cc3oc2=O)c1F` is reported as > 1000 nM (NCI-H2171; cell viability; 7 days).
`Nc1ncc(-c2cc(-c3cnn(CC(F)(F)F)c3)ncc2F)nc1C(=O)NC1CNCC(F)C1` (stereo not drawn) has a remaining binding of 64% (SNRK; KINOMEscan; 1 µM; relative to: DMSO control).
Under “log2 fold change”, `Cn1ncc2cc(-c3cncc(Cl)c3N3CCC4(CCNC4=O)CC3)ccc21` is recorded as 2.68 (LS174T; gene expression, microarray, refers to: SLC2A4 mRNA; concentration not given, 24 h; relative to: untreated cells).
For `CCN(CC)CC(=O)Nc1cccc(-n2cc(-c3ccc4ccc(-c5cn(-c6cccc(NC(=O)CN(CC)CC)c6)nn5)cc4c3)nn2)c1`, the fold regulation was 1.1 (RCC4; PCR array, refers to: ENG; 5 x IC50, 4 h, normoxia; relative to: untreated).
`Cc1ncsc1-c1ccc(C(C)NC(=O)C2CC(O)CN2C(=O)C(NC(=O)CCCCCCCCCCN2CCCC(Nc3ncc(Cl)c(Nc4ccccc4S(=O)(=O)C(C)C)n3)C2)C(C)(C)C)cc1` (stereo not drawn) — result for “log2 fold change”: -2.89 (22Rv1; RNA-seq, refers to: TMCO1-AS1; concentration not given; relative to: DMSO).
With `CCOc1cncc(-c2ccc(NC(=O)C3(c4ccnc(NS(=O)(=O)C5CC5)n4)CCOCC3)nc2)n1` the IC50 was 32 nM (lung cancer; cell viability, CellTiter-Glo; DMSO 0.1%; 72 h, line code 430).
`COc1ccccc1-c1ccncc1C(=O)Nc1nnc(OCc2ccc(Cl)cc2)s1`: “change in MMEJ frequency” 18.7% and 15.8% and 7.4% (U2OS EJ2-GFP; EJ2-GFP reporter, GFP+/dsRed+ ratio; 5 µM, added: I-SceI transfection; relative to: DMSO).
`CNC(=O)C1CCCN(C(=O)C2CC3CCC2N3C(=O)[C@@H]2C[C@@H](O)CN2C(=O)NCc2cccc(Cl)c2F)C1` (mixture of isomers) gave a remaining activity of 102% and 106% (Cytochrome P450 2B6 (CYP2B6, Homo sapiens, UniProt P20813); preincubation without NADPH; human; 50 µM; relative to: negative control).
For `C=CC(=O)Nc1cccc(Cn2ncc3cnc(Nc4cnn(CCOC)c4)nc32)c1`, “percent of control” read 23% (PRP4 human; binding, KINOMEscan; 100 nM; lower = stronger binding).
With `CC(C)c1ccc(N(C)c2ccc3c(c2)OCC[C@H]3CNc2cnccc2C(=O)O)cc1` the IC50 was ≥ 10000 nM (MDA-MB-175-VII; cell viability, CellTiter-Glo; 7 days).

For quick reference, copied from above:
With `CCOc1cncc(-c2ccc(NC(=O)C3(c4ccnc(NS(=O)(=O)C5CC5)n4)CCOCC3)nc2)n1` the IC50 was 32 nM (lung cancer; cell viability, CellTiter-Glo; DMSO 0.1%; 72 h, line code 430).
`COc1ccccc1-c1ccncc1C(=O)Nc1nnc(OCc2ccc(Cl)cc2)s1`: “change in MMEJ frequency” 18.7% and 15.8% and 7.4% (U2OS EJ2-GFP; EJ2-GFP reporter, GFP+/dsRed+ ratio; 5 µM, added: I-SceI transfection; relative to: DMSO).
